Results collected from several papers.
Lines come from different studies, so protocols differ. Values joined by “and” are separate records of one study, mostly repeats; a detail may differ. ± gives the spread as reported.

| SMILES | cell line | assay | test system | setting | scale | quantity | result |
| --- | --- | --- | --- | --- | --- | --- | --- |
| CC(C)(c1ccc(O)cc1)c1ccc(O)cc1 | HepG2 spheroids | Hoechst flow cytometry | – | 0.1 µM, 24 h | – | S phase cells | 7.42 ± 1.41% |
| Cn1cc(-n2cnc3c(NCc4nc5cc(Cl)c(Cl)cc5[nH]4)nc(N4CCOCC4)nc32)cn1 | MDA-MB-231 | cell viability, CellCounting-Lite | – | 222.2 nM, 37 °C | higher = more viable cells | luminescence signal | 9770 a.u. and 12300 a.u. and 11500 a.u. |
| Nc1ncnc2nc(-c3ccc(N4CCOCC4)nc3)cc(-c3cccc(Br)c3)c12 | activated human T cells | – | human | 31.6 nM | – | T cell proliferation | 74.2% and 63.6% and 69.3% |
| O=c1[nH]nc(OCCCc2ccc(Cl)cc2)c(NCc2cccnc2)c1Br | HEK293T | RNA-seq, measured: DNAJB1 mRNA | – | 10 µM, 6 h | baseline: vehicle | log2 fold change | -0.574 |
| Cc1ccc(NS(=O)(=O)c2cccc(C#N)c2)c2[nH]cc(C#N)c12 | NKM-1 | Western blot | – | concentration not given, 48 h | – | PCNA protein level | no effect |
| CCn1cc(-c2cc(Cn3ccnc3)cc3c2CCN([C@H](c2cc(OC)ccn2)C2CC2)C3=O)c(C(F)(F)F)n1 | SNU1 | cell growth, inhibitor | – | 120 h | – | EC50 | > 30 µM |
| O=C(/C=C/C=C/C=C/C1CCCCC1)NC1=C[C@@](O)(/C=C/C=C/C=C/C(=O)NC2=C(O)CCC2=O)[C@@H]2O[C@@H]2C1=O | Li-7 | cell growth, CellTiter-Glo | – | 78 h | – | GI50 | 13.9 µM |
| CC(C)NCC(O)c1ccc(O)c(O)c1 (stereo not shown) | mouse ventricular cardiomyocytes | – | – | dose not given, 0.327 s | – | sarcomere length | 1.8 µm |
| COc1ccc(-c2ccc3c(N4CCOC[C@@H]4C)nc(N4CCOC[C@@H]4C)nc3n2)cc1CO | SNU-1040 | – | – | 0.33 µM, 72 h, 100% DMSO | baseline: vehicle | cell growth | 79.6% |
| Nc1cccc2c1C(=O)N(C1CCC(=O)NC1=O)C2=O (stereo not shown) | MM1.S resistant to compound | XTT | – | 0.2 µM | – | viability | 103% and 100% and 81% |
| NC1(c2ccc(-c3nc4ccn5c(=O)[nH]nc5c4cc3-c3ccccc3)cc2)CCC1 | T47D compound-resistant | cell viability | – | 72 h | baseline: EC50 resistant over wild-type T47D | resistance fold | 5.3 |
| CCCCCCCCCCCCCCCCCCOc1cccc(CC(=O)OCC[N+]2(C)CCCCC2)c1 | NSCLC panel (nine cell lines) | – | – | 10 µM | – | mean growth inhibition | 12.5% |
| COc1c(C)c(OC(C)=O)c(C)c(OC(C)=O)c1C(=O)/C=C/c1ccccc1 | KKU-M213 | SRB | – | – | baseline: normal over KKU-M213 IC50 | selectivity index | 0.98 |
| Cc1cc(Nc2ncc(Cl)c(Nc3ccccc3S(=O)(=O)C(C)C)n2)c(OC(C)C)cc1C1CCNCC1 | CLB-BAR | phosphoproteomics LC-MS/MS, measured: PPP1R12A phosphorylation | – | 200 nM, 60 min | baseline: untreated | log2 fold change | -2.97 |
| CC/C(=N\NC(=O)NCc1cccc(O)c1)c1ccc(O)c(C)c1O | SK-OV-3 | Western blot, measured: LATS | – | 10 µM, 1 h, 2D culture, unit not given | baseline: β-actin | protein level | 1.08 ± 0.62 |
| C=CC(=O)N1[C@@H](c2ccc3c(c2)OCO3)c2[nH]c3ccccc3c2C[C@H]1C(=O)NC | rat DRG neurons | – | – | 30 µM, 48 h, added: vincristine 40 nM | – | mean neuron degeneration | 17.1% |
| Cn1cc(-c2ccc(-c3cncc(Cl)c3N3CCC4(CCNC4=O)CC3)cc2)cn1 | COLO 205 | gene expression, microarray, measured: ZNF548 mRNA | – | concentration not given, 2 h | baseline: untreated cells | log2 fold change | 2.13 |
| CCn1cc(-c2cc(Cn3ccoc3=N)cc3c2CCN([C@@H](C)c2cc(OC)ccn2)C3=O)c(C(F)(F)F)n1 | KLE | cell growth, inhibitor | – | 120 h | – | EC50 | 0.107 µM |
| Cn1cc(Nc2nccc(-c3ccc4c(c3)CN(C3COC3)CC[C@H]4NC(=O)c3cn(C(C)(C)C)nn3)n2)cn1 | mouse splenic B cells | measured: Dopamine degradation | – | 30 mg/kg, IgD-activated in vivo | baseline: vehicle, direction not given | pathway activation z-score | 1.34 |

Repeated from above:
| SMILES | cell line | assay | test system | setting | scale | quantity | result |
| --- | --- | --- | --- | --- | --- | --- | --- |
| Nc1ncnc2nc(-c3ccc(N4CCOCC4)nc3)cc(-c3cccc(Br)c3)c12 | activated human T cells | – | human | 31.6 nM | – | T cell proliferation | 74.2% and 63.6% and 69.3% |
| O=c1[nH]nc(OCCCc2ccc(Cl)cc2)c(NCc2cccnc2)c1Br | HEK293T | RNA-seq, measured: DNAJB1 mRNA | – | 10 µM, 6 h | baseline: vehicle | log2 fold change | -0.574 |
